Measurements from different studies.
Protocols differ between the studies behind these lines. Several values in a cell are separate wells, animals, samples, runs or records. ± gives the spread as reported.
Sequence of UniProt P54646 (whole entry, looked up): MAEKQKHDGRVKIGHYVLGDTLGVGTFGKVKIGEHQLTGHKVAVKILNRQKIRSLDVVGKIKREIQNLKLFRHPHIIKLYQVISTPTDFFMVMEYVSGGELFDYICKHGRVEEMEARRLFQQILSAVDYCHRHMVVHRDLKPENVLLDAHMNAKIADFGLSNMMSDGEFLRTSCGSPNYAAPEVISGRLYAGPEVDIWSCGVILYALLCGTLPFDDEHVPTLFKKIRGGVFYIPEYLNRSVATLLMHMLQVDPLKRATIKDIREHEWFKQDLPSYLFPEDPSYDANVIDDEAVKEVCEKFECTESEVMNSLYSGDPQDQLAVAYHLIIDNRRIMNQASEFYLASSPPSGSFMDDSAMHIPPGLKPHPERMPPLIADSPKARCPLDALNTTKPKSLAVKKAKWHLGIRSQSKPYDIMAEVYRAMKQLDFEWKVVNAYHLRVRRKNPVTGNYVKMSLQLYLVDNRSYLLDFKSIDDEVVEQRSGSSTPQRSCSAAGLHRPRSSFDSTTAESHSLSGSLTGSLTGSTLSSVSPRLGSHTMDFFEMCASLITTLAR
Sequence of UniProt Q15208 (whole entry, looked up): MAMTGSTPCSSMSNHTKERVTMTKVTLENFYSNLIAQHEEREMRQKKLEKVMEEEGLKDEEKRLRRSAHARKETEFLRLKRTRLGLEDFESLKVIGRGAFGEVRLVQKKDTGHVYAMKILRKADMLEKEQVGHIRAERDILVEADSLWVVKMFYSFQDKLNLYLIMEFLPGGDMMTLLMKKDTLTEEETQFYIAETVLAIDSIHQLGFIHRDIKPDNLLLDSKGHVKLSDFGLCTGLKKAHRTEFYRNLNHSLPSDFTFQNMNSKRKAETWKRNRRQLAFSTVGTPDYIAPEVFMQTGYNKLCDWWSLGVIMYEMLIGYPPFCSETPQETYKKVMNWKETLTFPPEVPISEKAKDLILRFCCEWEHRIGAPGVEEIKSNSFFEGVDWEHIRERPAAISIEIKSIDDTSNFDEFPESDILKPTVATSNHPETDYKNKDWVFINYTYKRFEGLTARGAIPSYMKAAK
Sequence of UniProt Q62868 (whole entry, looked up): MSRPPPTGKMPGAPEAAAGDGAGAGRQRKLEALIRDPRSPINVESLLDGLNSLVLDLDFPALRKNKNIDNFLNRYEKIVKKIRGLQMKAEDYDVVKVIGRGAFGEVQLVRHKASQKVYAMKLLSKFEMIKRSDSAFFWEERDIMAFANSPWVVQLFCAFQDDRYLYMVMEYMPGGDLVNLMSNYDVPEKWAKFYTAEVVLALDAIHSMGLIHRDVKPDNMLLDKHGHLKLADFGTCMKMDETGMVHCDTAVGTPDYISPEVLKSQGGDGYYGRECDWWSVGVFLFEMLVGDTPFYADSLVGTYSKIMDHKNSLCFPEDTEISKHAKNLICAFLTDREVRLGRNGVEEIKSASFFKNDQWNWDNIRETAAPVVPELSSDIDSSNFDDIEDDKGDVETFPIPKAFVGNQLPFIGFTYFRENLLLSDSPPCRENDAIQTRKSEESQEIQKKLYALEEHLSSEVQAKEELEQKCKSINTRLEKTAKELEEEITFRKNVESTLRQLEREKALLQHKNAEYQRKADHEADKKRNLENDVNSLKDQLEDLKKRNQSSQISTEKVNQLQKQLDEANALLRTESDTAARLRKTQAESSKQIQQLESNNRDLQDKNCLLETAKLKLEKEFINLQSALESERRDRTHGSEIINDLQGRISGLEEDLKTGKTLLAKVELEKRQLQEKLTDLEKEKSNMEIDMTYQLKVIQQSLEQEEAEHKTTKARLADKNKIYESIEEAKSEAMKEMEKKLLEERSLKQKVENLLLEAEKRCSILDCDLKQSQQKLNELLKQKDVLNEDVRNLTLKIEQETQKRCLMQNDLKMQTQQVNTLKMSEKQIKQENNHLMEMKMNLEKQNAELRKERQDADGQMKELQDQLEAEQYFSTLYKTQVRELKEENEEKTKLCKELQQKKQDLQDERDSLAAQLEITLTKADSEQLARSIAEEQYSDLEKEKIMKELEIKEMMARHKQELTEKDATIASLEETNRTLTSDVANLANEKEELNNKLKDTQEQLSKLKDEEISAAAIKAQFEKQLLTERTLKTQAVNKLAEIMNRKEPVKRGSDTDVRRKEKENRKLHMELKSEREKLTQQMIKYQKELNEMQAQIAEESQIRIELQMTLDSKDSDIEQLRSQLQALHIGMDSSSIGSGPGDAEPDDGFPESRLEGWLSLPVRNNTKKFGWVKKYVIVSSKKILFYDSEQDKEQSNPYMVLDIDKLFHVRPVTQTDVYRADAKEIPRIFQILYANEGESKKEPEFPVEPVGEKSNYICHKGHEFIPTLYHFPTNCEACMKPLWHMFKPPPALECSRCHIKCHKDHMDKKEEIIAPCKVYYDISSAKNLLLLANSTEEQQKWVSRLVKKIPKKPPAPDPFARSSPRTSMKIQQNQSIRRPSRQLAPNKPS
Sequence of UniProt Q16659 (whole entry, looked up): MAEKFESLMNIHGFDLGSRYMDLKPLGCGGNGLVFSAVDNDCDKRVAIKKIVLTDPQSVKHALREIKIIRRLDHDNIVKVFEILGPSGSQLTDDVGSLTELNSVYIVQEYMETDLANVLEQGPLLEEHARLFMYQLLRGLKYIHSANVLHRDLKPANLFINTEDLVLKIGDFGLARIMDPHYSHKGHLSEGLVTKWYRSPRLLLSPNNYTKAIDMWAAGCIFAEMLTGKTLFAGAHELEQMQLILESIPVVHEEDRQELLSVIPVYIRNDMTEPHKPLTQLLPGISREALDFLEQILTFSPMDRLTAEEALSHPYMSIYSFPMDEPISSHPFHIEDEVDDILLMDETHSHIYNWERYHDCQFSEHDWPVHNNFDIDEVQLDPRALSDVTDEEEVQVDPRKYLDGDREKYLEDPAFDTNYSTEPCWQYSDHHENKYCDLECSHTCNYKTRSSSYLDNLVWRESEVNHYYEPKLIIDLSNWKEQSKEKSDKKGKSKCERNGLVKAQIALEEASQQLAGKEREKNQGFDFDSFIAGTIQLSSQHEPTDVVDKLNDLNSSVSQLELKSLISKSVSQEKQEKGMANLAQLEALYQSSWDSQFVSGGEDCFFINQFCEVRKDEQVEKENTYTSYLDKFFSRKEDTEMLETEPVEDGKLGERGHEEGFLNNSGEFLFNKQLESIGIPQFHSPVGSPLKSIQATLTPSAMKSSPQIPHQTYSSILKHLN

For `CC(C)C[C@H](NC(=O)[C@H](CCC(=O)O)NC(=O)[C@@H](N)Cc1ccccc1)C(=O)N[C@@H](CCC(=O)O)C(=O)N[C@@H](CCCNC(=N)N)C(=O)N[C@@H](CCCNC(=N)N)C(=O)N[C@@H](Cc1ccccc1)C(=O)N[C@@H](CCCCN)C(=O)N[C@@H](CCC(N)=O)C(=O)N[C@@H](CCC(N)=O)C(=O)O`, the protein level was 1.32 and 1.11 and 1.01 (HCT-116; Western blot, measured: vimentin; concentration not given, unit not given; relative to: vehicle).
`CC(C)(C)C(=O)OCOP(=O)(OCOC(=O)C(C)(C)C)C1CCCN(O)C1=O` (stereo not drawn) has a Log10GI50 of -6.4 log M (MDA-MB-231).
`O=C(C[Se]C(=O)c1cc2ccccc2[nH]1)Nc1cccc(C(F)(F)F)c1` has a CC50 of 6.25 µM (NCI60 CNS subpanel; NCI60 five-dose screen).
For `Cc1cc(C(=O)Nc2nc3cccc(C)c3n2[C@H]2CCCCN(C(=O)/C=C/CN(C)C)C2)ccn1`, “cells in sub-G0 phase” read 5.38% (Trypanosoma brucei; propidium iodide flow cytometry; bloodstream form; concentration not given, 72 h).
For `CSCC[C@H](NC(=O)[C@H](CC(C)C)NC(=O)[C@H](CCC(N)=O)NC(=O)[C@H](C)NC(=O)[C@H](Cc1c[nH]c2ccccc12)NC(=O)[C@H](Cc1ccc(O)cc1)NC(=O)[C@H](CCC(=O)O)NC(=O)[C@H](CC(C)C)NC(=O)[C@H](Cc1ccccc1)NC(=O)[C@@H](NC(=O)[C@H](CC(C)C)NC(=O)[C@H](CCCCN)NC(=O)CCCCCNC(=O)[C@H](CCCCN)NC(=O)[C@H](CCC(N)=O)NC(=O)[C@H](CCSC)NC(=O)[C@H](CC(C)C)NC(=O)[C@]1(C)CCCC=CCCC[C@](C)(NC(=O)[C@H](CC(C)C)NC(=O)[C@H](Cc2ccccc2)NC(=O)[C@@H](NC(=O)[C@H](CC(C)C)NC(=O)[C@H](CCCCN)NC(C)=O)[C@@H](C)O)C(=O)N[C@@H](Cc2ccc(O)cc2)C(=O)N[C@@H](Cc2c[nH]c3ccccc23)C(=O)N[C@@H](C)C(=O)N1)[C@@H](C)O)C(=O)N[C@@H](CCC(N)=O)C(=O)N[C@@H](CCCCN)C(N)=O`, inhibition read “inhibited” (U-251; cell growth, CCK-8; 16 µM).
`O=[N+]([O-])c1ccc(-n2nc(-c3ccc(F)cc3)cc2-c2ccc(F)cc2)c([N+](=O)[O-])c1` has an ROS reduction of about 32% (Neuro2a; H2DCF-DA flow cytometry; 15 µM, 48 h; relative to: untreated uninfected cells).
For `COc1ccccc1-c1ccncc1C(=O)Nc1nnc(OCc2ccc(Cl)cc2)s1`, the colony survival was 97.3% (HCT-116 BRCA2 wild-type; 1 µM; relative to: untreated).
With `Cc1cc(Oc2nc(N3CC[C@@H](c4ccncc4)C3)ncc2F)[nH]n1` the IC50 was 77.6 µM (COLO-678; cell proliferation; colon cancer).
`CC(C)[C@H](NC(=O)[C@H](CCCNC(=N)N)NC(=O)[C@@H]1CCCN1C(=O)[C@@H](NC(=O)[C@H](C)NC(=O)[C@H](Cc1ccc(O)cc1)NC(=O)[C@H](CCC(N)=O)NC(=O)[C@H](CCCCN)NC(=O)[C@H](CCCNC(=N)N)NC(=O)[C@@H]1CCCN1C(=O)[C@H](CCC(=O)O)NC(=O)[C@@H](NC(=O)[C@H](C)N)[C@@H](C)O)[C@@H](C)O)C(=O)N[C@@H](Cc1ccccc1)C(=O)N[C@@H](Cc1c[nH]c2ccccc12)C(=O)N[C@H](C(=O)N[C@@H](CC(=O)O)C(=O)N[C@@H](C)C(=O)N1CCC[C@H]1C(=O)NCC(=O)NCCOCCOCCOCCOCCOCCOCCOCCOCCOCCOCCOCCOCCC(=O)N[C@@H](CS)C(N)=O)[C@@H](C)O` has a selectivity ratio of 3.2 ± 1.6 (HCC827; phage binding; relative to: targeting over control phage).
For `CC[C@H](C)[C@H](NC(=O)[C@H](CO)NC(=O)[C@H](Cc1ccc(O)cc1)NC(=O)[C@H](Cc1ccc(O)cc1)NC(=O)[C@H](CC(N)=O)NC(=O)CNC(=O)[C@H](CO)NC(=O)[C@H](Cc1ccc(O)cc1)NC(=O)[C@H](CO)NC(=O)[C@H](CO)NC(=O)[C@H](CC(N)=O)NC(=O)COCCOCCNC(=O)CN1CCN(CC(=O)O)CCN(CC(=O)O)CCN(CC(=O)O)CC1)C(=O)N[C@@H](CC(C)C)C(N)=O` [copper-64 labelled], the tissue uptake was 15.5 %ID/mL (dynamic PET; KPC mouse Ptf1a-CreER tdTomato, metastases; intravenous, dose not given, 3.5 min, 84 d after tamoxifen).
The CC50 of `O=C(C[Se]C(=O)c1ccc2ccccc2n1)Nc1cccc(C(F)(F)F)c1` is reported as 17.7 µM (NCI60 CNS subpanel; NCI60 five-dose screen).
For `CCCCNC(=O)c1ccc2nc(CC)c(N(C)Cc3ccc(OC)cc3)n2c1`, “transendothelial electrical resistance” read “increased” (bEnd.5 monolayer; in vitro blood-brain barrier model; IC50 and 1.5 x IC50, 48 h; relative to: untreated).
`COc1ccccc1-c1n[nH]c2nc(N[C@H]3CC[C@H](NS(=O)(=O)CC(C)C)CC3)ncc12` gave a relative abundance of 0.5 (bead binding, competition bead pull-down, measured: LINJ.26.0590; Leishmania donovani extract; 10 µM; relative to: vehicle).
`CC(C)[C@H]1NC(=O)C[C@H]2/C=C/CCSSC[C@@H](NC1=O)C(=O)N[C@H](Cc1cccc3ccccc13)C(=O)NCC(=O)O2` has an inhibition of -0.4% (Serine/threonine-protein kinase 38 (STK38, Homo sapiens, UniProt Q15208); enzyme activity, inhibitor; 10 µM).
`Cc1c(Cl)c(=O)oc2cc(OCCCCCC[Se]C#N)ccc12` has a GI50 of 17 µM (MIA PaCa-2; cell growth or viability, SRB).
`COc1ccc(NC(=O)c2ccc3[nH]c(-c4ccc(N(C)C)cc4)nc3c2)cn1` gave a PI-positive cells of 2.58 count and 3.25 count and 3.42 count (HCT116; IncuCyte; concentration not given, 0 (unit not given)).
`CC(C)CC(O)(CC(C)C)c1cn(C(=O)N2CCCC2)nn1` has a protein level of 1.12 (mouse T-cells; SILAC proteomics, measured: TPI1; 1 nM, 6 h, unit not given; relative to: DMSO).
The inhibition of `CN(C)[C@H]1C[C@@]23CC[C@@]4(O2)C(=CC[C@]2(C)[C@@H](c5ccc6ccncc6c5)CC[C@H]24)C=C3[C@@H](O)[C@@H]1O` is reported as 2.5% (Mitogen-activated protein kinase 6 (MAPK6, Homo sapiens, UniProt Q16659); ATP probe labelling, inhibitor, KiNativ profiling; 0.1 µM).
The viability of `O=c1n(CCNCCOS(=O)(=O)c2ccccc2)c(=O)n(S(=O)(=O)c2ccccc2)c(=O)n1S(=O)(=O)c1ccccc1` is reported as 55.6% (A549; cell growth or viability, MTT; 12.5 µg/mL, 72 h).
The serum sodium of `O=C1NC2(CC2)COc2ncc(F)cc2[C@H]2COCCN2c2ccn3ncc1c3n2` is reported as 146 ± 1 mmol/L (Sprague-Dawley rat, female, serum; oral, 5 mg/kg/day, end of recovery, 4-week subacute toxicity).
The phototoxicity index of `CCCNC(=O)[C@H]1O[C@@H]1C(=O)N[C@H](C(=O)N1CCC[C@H]1C(=O)OCC1=C2C(C)=CC(C)=[N+]2[B-](C)(C)n2c(C)cc(C)c21)[C@@H](C)CC` is reported as 7.7 (MCF-10A; MTT; 72 h; relative to: dark EC50 over light EC50).
For `O=C(C[Se]C(=O)c1ccco1)Nc1cccc(C(F)(F)F)c1`, “mean growth percent” read -18.8% (NCI60 breast subpanel; cell growth; 10 µM, 48 h, one-dose).
For `CS(C)(=O)=Nc1ccc(-c2ccc(-c3nc4cc(O[C@@H]5CO[C@H]6[C@@H]5OC[C@H]6O)[nH]c4cc3F)cc2)cc1`, the inhibition was 19% (5'-AMP-activated protein kinase catalytic subunit alpha-2 (PRKAA2, Homo sapiens, UniProt P54646); enzyme activity, inhibitor; 10 µM).
With `O=C(C[Se]C(=O)c1cc2ccccc2o1)Nc1cccc(C(F)(F)F)c1` the CC50 was 18.6 µM (NCI60 colon subpanel; NCI60 five-dose screen).
The relative abundance of `COc1ccccc1-c1n[nH]c2nc(NC3CCN(C(=O)Cc4ccc(F)cc4F)CC3)ncc12` is reported as 0.81 (bead binding, competition bead pull-down, measured: LMJF.25.1180; Leishmania donovani axenic amastigote extract; 10 µM; relative to: vehicle).
`CC(=O)NCSC[C@H](NC(=O)[C@@H]1CCCN1C(=O)[C@H](C)NC(=O)[C@@H](NC(=O)CNC(=O)[C@@H](NC(=O)[C@H](Cc1c[nH]c2ccccc12)NC(=O)[C@H](C)NC(=O)CNC(=O)[C@H](CO)NC(=O)[C@H](C)NC(=O)[C@@H]1CCCN1C(=O)[C@H](Cc1c[nH]c2ccccc12)NC(=O)[C@H](C)NC(=O)[C@H](C)NC(=O)[C@@H](N)Cc1ccc(O)cc1)[C@@H](C)O)[C@@H](C)O)C(=O)N[C@@H](CO)C(=O)N[C@@H](C)C(=O)NCC(=O)N[C@H](C(=O)NCCOCCOCCOCCOCCOCCOCCOCCOCCOCCOCCOCCOCCC(=O)N[C@@H](CS)C(N)=O)[C@@H](C)O` gave a selectivity ratio of 290 ± 65 (Huh-7 liver cancer; phage binding; relative to: targeting over control phage).
The remaining activity of `O=C1NC(=O)c2c1c1cc(F)c[n+]3c1c1c2c2cc(O)ccc2[n]1[Ru-4]312([N]=C=S)[S+]3CC[S+]1CC[S+]2CC3` (stereo not drawn) is reported as 80% (Rho-associated protein kinase 2 (Rock2, Rattus norvegicus, UniProt Q62868); enzyme activity; 100 nM, rat enzyme, with: 10 µM ATP; relative to: untreated).
